Measured values from different studies.
Lines come from different studies, so protocols differ. Numbers after ± are the reported error.
Chain of UniProt P16152 (whole entry, looked up): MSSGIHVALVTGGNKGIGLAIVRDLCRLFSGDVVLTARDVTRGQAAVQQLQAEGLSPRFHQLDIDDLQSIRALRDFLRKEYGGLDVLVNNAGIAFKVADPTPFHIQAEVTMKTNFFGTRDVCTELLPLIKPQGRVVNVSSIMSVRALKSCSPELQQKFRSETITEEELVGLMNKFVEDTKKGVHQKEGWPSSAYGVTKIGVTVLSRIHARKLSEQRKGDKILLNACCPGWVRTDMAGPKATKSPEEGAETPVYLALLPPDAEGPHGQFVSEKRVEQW

| SMILES | tested on | test | system | setting | how to read | endpoint | value |
| --- | --- | --- | --- | --- | --- | --- | --- |
| COc1c(CCC[P+](c2ccccc2)(c2ccccc2)c2ccccc2)cc2c(c1OC)OCO2.[I-] | OVCAR-8 | SRB | – | – | – | LC50 | > -4 log M |
| C/C=C(/C)C(=O)O[C@H]1C(C)=C2C([C@@H]1OC(=O)CCCCCCC)[C@@](C)(OC(C)=O)C[C@H](OC(=O)CCC)[C@@]1(O)[C@H]2OC(=O)[C@@]1(C)O (stereo partly drawn) | LDR | silenced CMV-GFP reporter derepression, qHTS | – | – | – | efficacy | 32% |
| CN1CCN(C2(CNC3CCN(c4cccc(-c5cc6cc(F)ccc6[nH]5)c4)CC3)CCC2)CC1 | HT-29 | – | – | – | – | GI50 | 1040 nM |
| COc1cc(CCC[P+](c2ccccc2)(c2ccccc2)c2ccccc2)c(OC)c2c1OCO2.[I-] | OVCAR-8 | SRB | – | – | – | TGI | -4.62 log M |
| Nc1ncnc2c1ncn2[C@@H]1O[C@@H]2COP(=O)(O)O[C@H]3[C@@H](O)[C@H](n4cnc5c(=O)[nH]cnc54)O[C@@H]3COP(=O)(O)O[C@H]2[C@H]1O | HFF-1 | RNA sequencing Reactome analysis, item: Reactome R-HSA-5627117 | – | with: West Nile virus infection | reference: West Nile virus infected cells, downregulated pathway | pathway fold enrichment | 12.4 |
| Cn1cncc1C1=CN(c2ncnc3[nH]cnc23)CCS1 | OVCAR-8 | – | – | ovarian cancer | – | CC50 | > 200000 nM |
| Cc1cnc2ccc3c(nc(N)n3C)c2n1 | BALB/c 3T3 | – | – | 0.1 µM | reference: solvent control | relative colony forming efficiency | 100 ± 6% |
| CC(c1ccccc1)(c1ccc(O)cc1)c1ccc(O)cc1 | HepG2 spheroids | planimetry | – | 2.5 µM, 0 to 24 h | reference: mean area of 72 h spheroids | spheroid area increase | 128% |
| C[C@H]1CN(c2n[nH]c3nc(N[C@H]4CC[C@H](NS(=O)(=O)CCC(F)(F)F)CC4)ncc23)CCO1 | Carbonyl reductase [NADPH] 1 (CBR1, Homo sapiens, UniProt P16152) | competitor, Kinobeads competition | human cell extract | – | – | Hill slope | 1 |
| O=C1N(Cc2ccccc2Cl)c2ccccc2C12NN=C(c1ccccc1)S2 (stereo not drawn) | MDA-MB-468 | gene array, item: SNX11 | – | 10 µM, 12 h | reference: untreated | mRNA fold change | 1.53 |
| O=S(=O)(c1ccc(O)cc1)c1ccc(O)cc1 | HepG2 spheroids | Hoechst flow cytometry | – | 1 µM, 24 h | – | S phase cells | 8.65 ± 0.71% |
| O=C1CCP(=[Se])(c2ccccc2)CC1 | SW480 | MTT | – | 72 h | reference: IC50 HaCaT over IC50 SW480 | selectivity index | 1.1 |
| O=c1cc(-c2ccc(O)cc2)oc2cc(O)cc(O)c12 | SH-SY5Y Aβ-GFP cells, scrambled shRNA | – | – | 5 µM | – | neurite process number | 3.7 to 3.8 |
| CCN(CC)c1ccc(C=NNC(=O)CSc2nc3ccccc3c(=O)n2Cc2ccc(S(N)(=O)=O)cc2)c(O)c1 | HT-29 | NCI five-dose screen | – | – | – | CC50 | > 100000 nM |
| C[C@]12CC[C@H](O)C[C@H]1CC[C@@H]1[C@@H]2C[C@@H](O)[C@]2(C)[C@@H](C3=CC(=O)OC3)CC[C@]12O | MYBPC3 iPSC cardiomyocytes | plate-normalised | – | concentration not given, 24 h, hit retest | – | MyBP-C level | 15.1% |
| Nc1ncc(-c2nc(N3CCOCC3)nc(N3CCOCC3)n2)c(C(F)F)n1 | SW480 | – | – | 72 h | – | GI50 | 472 nM |
| Oc1cc(Cl)ccc1Oc1ccc(Cl)cc1Cl | HepG2 | protein level, item: TNFAIP3 (A20) | – | 1 h, distribution mode 1 | – | point of departure | 5.37 µM |
| CN1CC[C@]2(C)c3cc(OC(=O)Nc4ccccc4)ccc3N(C)[C@H]12 | mouse primary cortical neurons | Western blot | – | up to 1 µM | – | α-synuclein protein decrease | ≤ 70% |
| Cc1n[nH]c(C)c1CSC1CCCCC1 | Jurkat | cytotoxicity | – | – | reference: IC50 HEK293 over IC50 Jurkat | selectivity index | 2.1 |
| COc1c(C)c2c(c(O)c1C/C=C(\C)CCC(=O)O)C(=O)OC2 | SF-268 | cell proliferation | brain cancer | – | – | IC50 | 575 nM |
| O=S(=O)(Nc1ccc(-c2nc3cc(NS(=O)(=O)c4cccc(C(F)(F)F)c4)ccc3o2)cc1)c1cccc(C(F)(F)F)c1 | HT-29 colorectal cancer | – | – | 48 h | – | EC50 | 19000 nM |

Excerpt of the above:
| SMILES | tested on | test | system | setting | how to read | endpoint | value |
| --- | --- | --- | --- | --- | --- | --- | --- |
| O=c1cc(-c2ccc(O)cc2)oc2cc(O)cc(O)c12 | SH-SY5Y Aβ-GFP cells, scrambled shRNA | – | – | 5 µM | – | neurite process number | 3.7 to 3.8 |
| Cc1cnc2ccc3c(nc(N)n3C)c2n1 | BALB/c 3T3 | – | – | 0.1 µM | reference: solvent control | relative colony forming efficiency | 100 ± 6% |
